Assay results collected from several papers.
Each line is one published result; not all experiments were run side by side. “And” joins repeats or separate records; there may be more than shown.
UniProt Q00535, sequence (whole entry, looked up): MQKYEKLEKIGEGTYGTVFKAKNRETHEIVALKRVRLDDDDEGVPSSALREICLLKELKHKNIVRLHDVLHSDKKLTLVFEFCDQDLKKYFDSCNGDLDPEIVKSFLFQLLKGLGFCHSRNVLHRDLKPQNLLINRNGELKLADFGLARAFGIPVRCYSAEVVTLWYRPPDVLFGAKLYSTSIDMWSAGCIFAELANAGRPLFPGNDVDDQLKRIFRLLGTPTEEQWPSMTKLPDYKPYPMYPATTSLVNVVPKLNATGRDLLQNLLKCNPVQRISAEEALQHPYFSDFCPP

O=C(Nc1cnccc1-c1ccc([18F])nc1)c1ccnc(NC(=O)C2CC2)c1 — SUV (FVB/NJ mouse, both sexes, liver; intravenous, 20 min): 9.63
CC[C@H](C)[C@@H]1NC(=O)[C@H](Cc2ccc(O)cc2)NC(=O)CCCSC[C@@H](C(=O)N(CC(=O)N[C@@H](CC(C)C)C(=O)NCC(N)=O)Cc2ccc(F)cc2)NC(=O)[C@H](CC(N)=O)NC(=O)[C@H](CCC(N)=O)NC1=O — AUC(0-last) (healthy human females, plasma; intranasal, 100 µg single dose): 0.033 ng·h/mL
COC1CN([C@H]2CC[C@H]([C@@]3(C)Oc4c(Cl)cc(C(=O)NCc5c(SC)cc(C)[nH]c5=O)c(C)c4O3)CC2)C1 — log2 fold change (RNA-seq, measured: MEIOC mouse homolog; mouse, HT-1376 xenograft, whole blood; dose not given; reference: vehicle): 2.01
CC(C)(O)c1ncc([S@](N)(=O)=NC(=O)Nc2c3c(cc4c2CCC4)CCC3)s1 — subjects with TEAEs (measured: immune system disorders; healthy human; oral, 300 mg, CS formulation): 17%
Cc1cc(-c2ccc(C(=O)[C@@H]3CCCC[C@H]3C(=O)Nc3cnn4c3C(=O)NCC4)cc2)[nH]n1 — radioactivity recovery per interval (human, urine; oral, 200 mg, 48-72 h; reference: dose): 0.08% and 0.09% and 0.15% and 0.11% and 0.05%
Cc1noc(C)c1Cn1cc(N2C(=O)CN(Cc3cccc(O[C@@H]4O[C@H](C(=O)O)[C@@H](O)[C@H](O)[C@H]4O)c3)C2=O)cn1 — plasma concentration (Sprague-Dawley rat, male; oral, 100 mg/kg of parent drug, 12 h): 324 ng/mL
O=C([O-])CN1CCN(CC(=O)[O-])CCN(Cc2cccc(C(=O)[O-])n2)CC1.[18F-].[Sc+3] — tracer uptake (mouse, muscle; intravenous, 1 h): 0.06 %ID/g
C=C(NC(=O)c1csc(-c2nc3c(cc2O)-c2nc(cs2)C(=O)NC(C(C)O)C(=O)NC(=C(C)OC)c2nc(cs2)C(=O)NC2c4nc(cs4)C(=O)NC(COC(=O)c4c5c6c(cccc6n4O)COC(=O)C(OC4CC(C)(O)C(N(C)C)C(C)O4)C2OC5)c2nc-3cs2)n1)C(N)=O (stereo not shown) — MRT(0-t) (ICR mice, Streptococcus pneumoniae ATCC 49169 infected, immunocompromised, blood; intravenous, 4 mg/kg/day once daily): 1.13 h
CC(C)OCCOCc1ccc(OCC(O)CN(N=O)C(C)C)cc1 (stereo not shown) — revertant fold increase (Salmonella typhimurium; Ames test; TA98; 15.8 µg/plate, without metabolic activation; reference: solvent control): 0.9 fold
C/C(N)=N/C(=N\S(=O)(=O)c1ccc(C(F)(F)F)cc1)N1C[C@H](c2ccccc2)C(c2ccc(Cl)cc2)=N1 — AUC(0-inf) (C57BL/6 mouse, plasma; intravenous, 10 mg/kg): 10500 ng·h/mL
CN(Cc1ccccc1)C(=O)CN1CCN(CC(=O)[O-])CCN(Cc2cccc(C(=O)[O-])n2)CC1.[177Lu+3] — tracer uptake (mouse, heart; intravenous, 1 h): 0.26 %ID/g
Cc1nn(-c2cccc(N)c2)c(=O)c2cnc(Nc3ccc(N4CCNCC4)cc3)nc12 — IC50 (Cyclin-dependent kinase 5, with p35 (CDK5, Homo sapiens, UniProt Q00535); enzyme activity, inhibitor): 3.63 µM
Cc1ncsc1-c1ccc(C(C)NC(=O)C2CC(O)CN2C(=O)C(NC(=O)CCCCCCCCCCN2CCCC(Nc3ncc(Cl)c(Nc4ccccc4S(=O)(=O)C(C)C)n3)C2)C(C)(C)C)cc1 (stereo not shown) — log2 fold change (22Rv1; RNA-seq, measured: ZCCHC14 mRNA; concentration not given; reference: DMSO): -1.29

Excerpt of the above:
CC[C@H](C)[C@@H]1NC(=O)[C@H](Cc2ccc(O)cc2)NC(=O)CCCSC[C@@H](C(=O)N(CC(=O)N[C@@H](CC(C)C)C(=O)NCC(N)=O)Cc2ccc(F)cc2)NC(=O)[C@H](CC(N)=O)NC(=O)[C@H](CCC(N)=O)NC1=O — AUC(0-last) (healthy human females, plasma; intranasal, 100 µg single dose): 0.033 ng·h/mL
COC1CN([C@H]2CC[C@H]([C@@]3(C)Oc4c(Cl)cc(C(=O)NCc5c(SC)cc(C)[nH]c5=O)c(C)c4O3)CC2)C1 — log2 fold change (RNA-seq, measured: MEIOC mouse homolog; mouse, HT-1376 xenograft, whole blood; dose not given; reference: vehicle): 2.01
